Results from different studies.
Parts stem from different laboratories: compare values within a part only. Positions count from the first letter of the parent shown.

Set 1
Target: RNA binding protein fox-1 homolog 2, RRM domain, GST-SBP tag (RBFOX2, Homo sapiens, UniProt O43251-10, residues 100-194)
Technique: RNA Bind-n-Seq
Form: RNA
Matrix: in vitro
Concentration: 365 nM
Setting: natural RNA segment, single round, ends assumed
Reference: no-protein control
Reading: higher = stronger binding
Endpoint: RBNS enrichment (R)
Construct (chain): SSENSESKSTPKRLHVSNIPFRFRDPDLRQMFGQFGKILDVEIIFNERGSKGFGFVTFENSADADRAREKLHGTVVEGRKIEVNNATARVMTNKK
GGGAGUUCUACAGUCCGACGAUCUUUUCUUUCAGUUUUUUUAAUCGCAUGUCUAGUAUAUUAAGUCUCCAUAGCCCUCCUGAUGCAGUAGACAGUGCUAUGCUGUGGAUAUAAUACCAACCAGAAAUUGGCAUUGGAAUUCUCGGGUGCCAA: 11.1
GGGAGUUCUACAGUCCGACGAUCUGGCUCUCUCUCCCCCACUUGUUCUGACUUAGGAUAAUGAUCUCUAUUUUGUUUGUUUCUCAAGUGACUUGUGGACUUGUGCUGUAUAAACUGUAUUAAAAAGGCUCUGUUGGAAUUCUCGGGUGCCAA: 0.63
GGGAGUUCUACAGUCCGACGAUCGGUCCAGUCACAUUACUUUGCACUUCUUCUUCUUUUUUUUCUUUUUGUACAAAAUUUUAAAGACUUAAUUUAUUGCCAAAAUUCUGUGUAAAGUGACAGUGUAUCUAACAUGGAAUUCUCGGGUGCCAA: 0.624
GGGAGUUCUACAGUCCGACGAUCCAGGAGUGCCAAAGGACACUAUGAACUUUUUGAACUGACAGUUUCUCCUAACUUUCUGCUUUAGCGUAAUUGCUCAGAGUAGAGAGCCCCCACAAAGUUAUUUAAAAGAUUGGAAUUCUCGGGUGCCAA: 0.439
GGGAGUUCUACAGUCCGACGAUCGACUUGUCCUUUGAGAGCCUUCUUACAGAGAAUUGGUUAAAAAAACCAAACAUUCAAUUUGGAAUAAGAAUGAUUUUUUAAAGUUCUGUCUGAAACAUUAUCAAACUUGUUGGAAUUCUCGGGUGCCAA: 0.508
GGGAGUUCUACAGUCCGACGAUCCACCAGAAGCUGCCGUAGAAAGCCAUGCGCUACUGCUUACCUCCUCCACUCCCCCUGCCUGCCCCCAGCAUCUGGACAAGCUAAUAGCAAAUAUUACCCAUUGCUAUCAAUGGAAUUCUCGGGUGCCAA: 3.71
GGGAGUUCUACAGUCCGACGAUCUCAGAUUUACACUGGCACUGUGCCCUCUACCACUAUAUGCCAAAAACUGCUUCUGUAGUACCAUUUUGAUAUUAUGUCAGUUAUACAUAAUAUCUGACUAUUGUUUUCUAUGGAAUUCUCGGGUGCCAA: 0.338
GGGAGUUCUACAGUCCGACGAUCACCAGGAGCUAAACUGAGAGGCUAAACUGUGUCAUGAAGCGCGUUGGAAACAGACUUCUGCCUACAUCGAGUCCUACGAAUUGGGGUUGUAUUGAUGUCACUCUGGUGCCUGGAAUUCUCGGGUGCCAA: 0.525
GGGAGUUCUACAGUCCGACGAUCUUGCUAGUAGAUCAAAGCUAUUUUCACACGCUCUGUUUUCUAUCUUGUAUCGAUCCUGCGAAUCAGUGAUUAUCUUUGUUGGAAAACCUUAUCAAAUGUGUCUGCAAAUCUGGAAUUCUCGGGUGCCAA: 0.525
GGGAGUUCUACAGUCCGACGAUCUCUCAGCCAACCCGCUCCACUACCCGGCAGGGUACACAUUCGCACCCCUACUUCACAGAGGAAGAAACCUGGAACCAGAGGGGGCGUGCCUGCCAAGCUCACACAGCAGGUGGAAUUCUCGGGUGCCAA: 0.579
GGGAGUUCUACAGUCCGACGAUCUCCACAUGAGAUUCCAGAAGAAAUGUGUGAUUAAAAUCCAAAUUCAUGCUGUUUUUUUUCUCUGCAACUCGUUAGCAGAGGAAAACAGCAUGUGGGUAUUUGUCGACCAAUGGAAUUCUCGGGUGCCAA: 0.368
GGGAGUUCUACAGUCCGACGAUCUGUAAAUGUGCCAUGCUCUGGUGGUGUGGGCAGUCAAUUAUUGUUAGAAUCUUUACCAAAGAUCUGGAGUUAGGGUAGCCUUUCUAUUUUAGUACUGAACUCCUGUGCCCUGGAAUUCUCGGGUGCCAA: 0.291

Set 2
Target: Histone acetyltransferase KAT6A, winged helix 2, GST fusion (KAT6A, Homo sapiens, UniProt Q92794, residues 85-181)
Technique: protein binding microarray
Form: double-stranded DNA, one strand shown
Matrix: in vitro
Concentration: not given
Setting: 8-mer, flanks averaged, mean of 2 arrays, mostly near background
Reference: not given
Reading: higher = stronger binding
Endpoint: E-score
Construct (chain): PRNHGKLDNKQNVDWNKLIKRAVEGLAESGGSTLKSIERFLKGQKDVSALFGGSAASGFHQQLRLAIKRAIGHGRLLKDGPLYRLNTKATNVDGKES
GAAGTTCA: -0.0436
AAAGCGGT: 0.0353
ACTTAAAA: 0.141
AATTTAAA: 0.101
CATACTCC: -0.0777
ACTTCTCA: -0.102
GGTGCGAA: 0.0436
CCCGGAGG: 0.0741
AGTGGAGA: -0.0646
GGATCTGA: 0.0262
TATAATGA: 0.00492
AAGTAGGA: -0.105
AAATGGGT: -0.134
TCACATCA: -0.0648
AAGCATGC: -0.106
AATGGGGC: -0.158
AGGTTCCC: -0.0114
CAGTATCC: -0.123
ATTGCCAA: 0.0583
ACGCTAAG: -0.135
CGGAGGAG: -0.141
ACTATGTA: -0.0892
CCCCCCAC: -0.143
AAAGCACA: 0.0875
TCTACACA: -0.00713

Set 3
Target: CCNF, cyclin fold, Cln2 fusion (human)
Technique: yeast growth competition, sequencing
Matrix: yeast
Setting: strong parent motif
Reference: not given
Reading: higher = stronger binding
Endpoint: normalised enrichment score
Parent: RB1 docking peptide (human); PKPLKKLRFDIEG
PKPLKKLRFDWEG [I11W]: 1.58
PKPLKKLTFDIEG [R8T]: 1.4
PKPLKKLRFKIEG [D10K]: 1.71
PQPLKKLRFDIEG [K2Q]: 0.83
PKPLKKLRFDIEE [G13E]: 1.91
HKPLKKLRFDIEG [P1H]: 0.655
PKPLKKLKFDIEG [R8K]: 0.705
PKPLKKMRFDIEG [L7M]: 0.382
PKPLKKFRFDIEG [L7F]: 0.255
PKPLKKLRFDIQG [E12Q]: 0.688
PKPLKKLSFDIEG [R8S]: 1.92
PKPFKKLRFDIEG [L4F]: 1.99
PKPLKKLRFDIEH [G13H]: 0.743
PKPLKKLRFGIEG [D10G]: 2.81

Set 4
Target: ABI1, truncated, D143A, DHFR fusion (Arabidopsis thaliana)
Technique: DHFR PCA, deep sequencing
Matrix: yeast
Setting: methotrexate growth selection, single substitutions
With: (+)-ABA 17 µM
Reference: wild-type fitted maximum
Reading: higher = stronger binding
Endpoint: relative binding score
Parent: PYL1, truncated, DHFR fusion (Arabidopsis thaliana); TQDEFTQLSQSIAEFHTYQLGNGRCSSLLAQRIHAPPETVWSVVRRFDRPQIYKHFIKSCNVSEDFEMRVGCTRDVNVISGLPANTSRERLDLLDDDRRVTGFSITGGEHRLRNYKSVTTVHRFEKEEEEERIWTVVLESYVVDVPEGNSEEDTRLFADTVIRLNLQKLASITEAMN
T173L: 49.2%
L166K: 4.03%
F47R: -5.98%
C25K: 3.62%
E64F: 66%
V118P: -4.72%
V137N: 12.4%
H122C: 24.8%
S26E: 25.7%
Y18I: 49%
S171W: 66.2%
I133E: 107%
R69W: 23.6%
S80M: 20.8%

Repeated from above (set 1):
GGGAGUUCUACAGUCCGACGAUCUGGCUCUCUCUCCCCCACUUGUUCUGACUUAGGAUAAUGAUCUCUAUUUUGUUUGUUUCUCAAGUGACUUGUGGACUUGUGCUGUAUAAACUGUAUUAAAAAGGCUCUGUUGGAAUUCUCGGGUGCCAA: 0.63
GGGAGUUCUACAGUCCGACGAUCGGUCCAGUCACAUUACUUUGCACUUCUUCUUCUUUUUUUUCUUUUUGUACAAAAUUUUAAAGACUUAAUUUAUUGCCAAAAUUCUGUGUAAAGUGACAGUGUAUCUAACAUGGAAUUCUCGGGUGCCAA: 0.624
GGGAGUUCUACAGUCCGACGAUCCAGGAGUGCCAAAGGACACUAUGAACUUUUUGAACUGACAGUUUCUCCUAACUUUCUGCUUUAGCGUAAUUGCUCAGAGUAGAGAGCCCCCACAAAGUUAUUUAAAAGAUUGGAAUUCUCGGGUGCCAA: 0.439
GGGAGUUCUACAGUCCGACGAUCGACUUGUCCUUUGAGAGCCUUCUUACAGAGAAUUGGUUAAAAAAACCAAACAUUCAAUUUGGAAUAAGAAUGAUUUUUUAAAGUUCUGUCUGAAACAUUAUCAAACUUGUUGGAAUUCUCGGGUGCCAA: 0.508
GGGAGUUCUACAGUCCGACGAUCCACCAGAAGCUGCCGUAGAAAGCCAUGCGCUACUGCUUACCUCCUCCACUCCCCCUGCCUGCCCCCAGCAUCUGGACAAGCUAAUAGCAAAUAUUACCCAUUGCUAUCAAUGGAAUUCUCGGGUGCCAA: 3.71
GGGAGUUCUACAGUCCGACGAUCUCAGAUUUACACUGGCACUGUGCCCUCUACCACUAUAUGCCAAAAACUGCUUCUGUAGUACCAUUUUGAUAUUAUGUCAGUUAUACAUAAUAUCUGACUAUUGUUUUCUAUGGAAUUCUCGGGUGCCAA: 0.338
